Measured values of several laboratories.
Lines come from different studies, so protocols differ.
Effect on: metabolic stability

| Compound | system | setting | measurement | value |
| --- | --- | --- | --- | --- |
| NC1CCN(C(=O)Oc2ccc(C3CCCC4(C3)OOC3(O4)C4CC5CC(C4)CC3C5)cc2)CC1 (racemic) | mouse, liver microsomes |  | microsomal CLint | 14.1 µL/min/mg |
| CCc1nnc(-c2c(OC)cc(-c3cnc4cc(-c5cnn(C)c5)ccn34)cc2OC)o1 | mouse, liver microsomes |  | microsomal CLint | < 9.6 µL/min/mg |
| CN(C)CCCNC(=O)C[C@H](Cc1ccc(F)cc1)NC(=O)[C@@H](Cc1ccc(Cl)cc1Cl)NC(=O)[C@H](N)Cc1ccccc1C#N | CD-1 mouse, liver microsomes | 1 µM | microsomal CLint | 17 µL/min/mg |
| COc1cc2c(cc1NC(=O)c1cncn1C)C[C@H]1[C@H]3CCCC[C@@]23CCN1C | mouse, liver microsomes |  | microsomal CLint | 48.3 µL/min/mg |
| O=C(CN1CN(c2ccccc2)C2(CCN(C(=O)c3cnc4[nH]ncc4c3)CC2)C1=O)NCC(F)(F)F | mouse, liver microsomes |  | microsomal CLint | 97 µL/min/mg |
| C#CCCCNC(=O)CC(Cc1ccc(F)cc1)NC(=O)C(Cc1ccc(Cl)cc1Cl)NC(=O)C(N)Cc1ccccc1C#N (centres unmarked) | CD-1 mouse, liver microsomes | 1 µM | microsomal CLint | 63 µL/min/mg |
| C[C@@H]1COCCN1c1nc(NCc2cccnc2C(F)(F)F)c2cccnc2n1 | mouse, hepatocytes |  | hepatocyte CLint | 8.8 µL/min/10⁶ cells |
| O=C(CN1C(=O)C2(CCN(C(=O)c3ccc4[nH]ncc4n3)CC2)c2c(Br)cccc21)NCC(F)(F)F | mouse, liver microsomes |  | microsomal CLint | 10 µL/min/mg |

Excerpt of the above:
| Compound | system | setting | measurement | value |
| --- | --- | --- | --- | --- |
| C[C@@H]1COCCN1c1nc(NCc2cccnc2C(F)(F)F)c2cccnc2n1 | mouse, hepatocytes |  | hepatocyte CLint | 8.8 µL/min/10⁶ cells |
